Results gathered from unrelated publications.
Each line is one published result; not all experiments were run side by side. ± gives the spread as reported.
B1: UGT1A9 (Homo sapiens, UniProt O60656); chain GKLLVVPMDGSHWFTMRSVVEKLILRGHEVVVVMPEVSWQLGRSLNCTVKTYSTSYTLEDLDREFKAFAHAQWKAQVRSIYSLLMGSYNDIFDLFFSNCRSLFKDKKLVEYLKESSFDAVFLDPFDNCGLIVAKYFSLPSVVFARGILCHYLEEGAQCPAPLSYVPRILLGFSDAMTFKERVRNHIMHLEEHLLCHRFFKNALEIASEILQTPVTEYDLYSHTSIWLLRTDFVLDYPKPVMPNMIFIGGINCHQGKPLPMEFEAYINASGEHGIVVFSLGSMVSEIPEKKAMAIADALGKIPQTVLWRYTGTRPSNLANNTILVKWLPQNDLLGHPMTRAFITHAGSHGVYESICNGVPMVMMPLFGDQMDNAKRMETKGAGVTLNVLEMTSEDLENALKAVINDKSYKENIMRLSSLHKDRPVEPLDLAVFWVEFVMRHKGAPHLRPAAHDLTWYQYHSLDVIGFLLAVVLTVAFITFKCCAYGYRKCLGKKGRVKKAHKSKTH

Molecule	tested on	assay	test system	setting	quantity	result
Insulin human	–	ELISA	rat, brainstem	intranasal, 20 µg per nostril, 60 min	concentration	185 ± 98.5 pg/mg tissue
B-type natriuretic peptide (human)	293 cells expressing NPR-A	cGMP radioimmunoassay	human kidney membranes	concentration not given, 20 min, 37 °C	loss of biological activity	85%
HIWWNDN	–	–	peptide, human polyclonal IgM RF STR	concentration not given, 5 µg/mL mAb II-481 coated, together with: RF at 50% max binding concentration	inhibition	10%
GAGUUGAGUUGAGUUGAGUUGAGUUGAGUUGAGUUGAGUUGAGUUGAGUUGAGUU (ssRNA; single strand)	mtrB full length assumed T30N (Bacillus subtilis, UniProt P19466)	filter binding	–	together with: L-tryptophan 1 mM	Kd	0.07 ± 0.007 µM
CARLSLSWRGLTLCPSK (68Ga-DOTA-labelled)	mouse VAP-1	ex vivo biodistribution	peptide, wild-type mouse, B16 melanoma xenograft, blood	60 min, together with: 500-fold excess unlabelled DOTA-peptide	uptake	0.2 ± 0.02 SUV
B1 (UGT1A9)	Oc1ccc(C2CCCC2)cc1	steady-state kinetics	–	pH 7.4, 37 °C	Vmax	0.00108 µmol/min/mg
CIKVAVS	–	–	peptide, human polyclonal IgM RF AGER	concentration not given, 5 µg/mL mAb II-481 coated, together with: RF at 50% max binding concentration	inhibition	0%
